Published values pooled from the literature.
Every numbered part comes from another study and shows a few of its results, in no order.

Sample 1
Target: Fragile X messenger ribonucleoprotein 1, C-terminal low-complexity region (Fmr1, Mus musculus, UniProt P35922)
Technique: RNA Bind-n-Seq
Molecule type: RNA
Matrix: in vitro
Concentration: 200 nM
Notes: whole 134-nt RNA, ends assumed
Together with: 150 mM LiCl
Reference: input library
Reading: higher = stronger binding
All molecules: 7-deaza-guanosine replaces G
All sequences stand within: GGGAGUUCUACAGUCCGACGAUC … UGGAAUUCUCGGGUGUCAAGG
Oligonucleotide	log2 enrichment
UCAAGUCCUGUGCUACACAUCGUAUGUACCGAAUCGGGUGGGUGGGUUUUUGGGAAAGUAUUAUGUUACGCCGUUCGGAUCUGCACUUCC	-2.07
AGUCCUGUGCUACACAUCGUAUGUACCGAAUCGGGAAAAAGGGAAAAAGGAAAAAGGAAAGUAUUAUGUUACGCCGUUCGGAUCUGCACU	-1.38
CUCAAGUCCUGUGCUACACAUCGUAUGUACCGAAUCGGAGGUUUUUUUGGAGGAAAGUAUUAUGUUACGCCGUUCGGAUCUGCACUUCCA	-0.354
UGGCCCUGGUGGCAUGCGGGGAGGAAGAGGUGGCCUCAUGGAUCGUGGUGGUCCCGGUGGAAUGUUCGGAGGUGGCCGUGGUGGAGACAG	-0.233
UAACUUUAGAGGAGGAUCUGAUGGAUAUGGCAGUGGACGUGGAUUUGGGGAUGGAUAUAAUGGGUAUGGAGGAGGACCUGGAGGUGGCAA	1.44
CUGUGCUACACAUCGUAUGUACCGAAUCGGGGUUUUUUUGGGGUUUUUGGGGUUUUUGGGGAAAGUAUUAUGUUACGCCGUUCGGAUCUG	1.62
CCUGUGCUACACAUCGUAUGUACCGAAUCGGGCCCCCCGGGGCCCCCCGGGGCCCCCCGGAAAGUAUUAUGUUACGCCGUUCGGAUCUGC	-2.65
UGUCUGGUGACAAGGAAGAGGAUGCUCCUCAUAGAGAAGAUUACUUUGAGCCCAUUUCUCCUGAUCGGAAUUCUGUUCCCCAGGAAGGGC	-2.17
CGCAGACAACACGCACCCACACAGACACAGAGGGAAGGGGUUGGGAUGGGGACAGGGUGCACAGCAGGGCGGGGUAGGACCCCAGCCCCU	-0.142
GCAGGAAGUAAAAACAAAUGGAAAUGCUUCGGAUAGUGGCAGGGGUGGGGGUUGCUAAGGAAAGGGUGCGAUGGGAGUGGGUAAAGAGUU	0.754
AAGUCCUGUGCUACACAUCGUAUGUACCGAAUCGGGUUUUUUUGGGUUUGGGAGGGAAAGUAUUAUGUUACGCCGUUCGGAUCUGCACUU	-1.19

Sample 2
Target: RING finger protein unkempt homolog, zinc fingers 1-6, SBP tag (UNK, Homo sapiens, UniProt Q9C0B0, residues 30-357)
Sequence of UniProt Q9C0B0 (30-357, looked up): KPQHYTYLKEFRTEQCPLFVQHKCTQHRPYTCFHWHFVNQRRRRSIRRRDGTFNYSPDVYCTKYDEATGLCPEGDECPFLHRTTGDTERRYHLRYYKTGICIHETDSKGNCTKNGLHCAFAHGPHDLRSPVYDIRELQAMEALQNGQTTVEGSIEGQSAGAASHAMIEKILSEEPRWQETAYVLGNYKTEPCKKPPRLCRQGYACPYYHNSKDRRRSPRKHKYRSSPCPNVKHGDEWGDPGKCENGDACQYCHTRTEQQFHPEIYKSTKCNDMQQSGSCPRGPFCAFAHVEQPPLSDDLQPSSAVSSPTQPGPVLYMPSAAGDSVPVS
Technique: RNA Bind-n-Seq
Molecule type: RNA
Matrix: in vitro
Concentration: 100 nM
Notes: RNA with constant flanks, vertebrate orthologous sites, ends assumed
Reference: input RNA pool
Reading: higher = stronger binding
All sequences stand within: GGGAGUUCUACAGUCCGACGAUC … CAACAGAGGAUUGAGCAUCA
Oligonucleotide	bound/input enrichment [ratio]
GGGACGCUUUGAUGUAAAAAUUGAAGUUAAGAGCUGAUCACAAGCACAGAUCCUCCCCUCUAGCCAUUUAAUAAGUUAAAAAAUUACAAAAACAAAAACCUACUAGUCUUGAACAAACUG	7.45
ACACUUAUAUUGUGGCAUAUAGUCAACAUGGAAGUAGACCAGUUCUGCUGAUUUGAAAUUUAGAUUUUUUAAAUUAUGUACUGGGGACAGGUUUUUGUUGCUUUACAUUGCUUCCUAGUU	2.06
GUCUAGGUAGGGGUAACCAUUAACUUAUUUUAUAAGGAAAUGAAAUGCUGAAAAUCACGUUAGUGCCAAGUUUAGCUGGAGAACAUGAGCCCCUUUUAGGUGAUUCUCAAGUGGAACUCC	0.395
GUUGUGACCCAUUUAACAUACACAAGAAACUAGCCAAGAAAAAUUUGCAUGUAAUUGACUUAGAUGAUGCUACUUUUCUGAGUGCAAAAUUUGGGAGACAGCUUGUACCUGGCUGGAAAC	0.836
CAUCCUUUCAUACUGUCAUGGACUAGGAUCAGGGACAAAUGUCUGUCUGAGAAACUGCAUUUAAAACAUUUUUUUAAAUCAUUGUACAGGAAGAGAUGGGUCUAAACAGCAUCUCAGAGU	0.468
AGCAGGCCAGGGAUUGAGGCCCACCUUCCCACAUGUGCCGAGUCGGUAUGGAAACUACAGGACGGGGCAGCCGAGACCUUGAAGGACUCUAACUCAUUUUUAUGAGCAAUGUCGACUCCU	0.123
CAAUUCAAUGGUUGAAGGUUCAGAACUCAAAAAGGUUCGAUCCAACUCUAGGAUUUACCAUAGAUAUUUUUUACUGGAUGCCGACAUGCAGAGCCUGAGGUGGGAGCCGUCCAAGAAGGA	0.696
UACUGUUGUUAAGCACUGUUCCAGACCGUGUCUGACUUUAGUGUAACCUAGGAGAUUUUAUAGUUUUAUUUUAAUGGAAUCCUGCCUGACGCAGAGCAGUUGGGAGAGCAGUGUCUUCUG	1.54
ACCUACAAUAAUGAAAACCUACAGAAAUUUUUUAAUUUUUCAUUUCCCUUUAGGCAUAUUUAGUCCUUUUCCCCCCAGGCAGAUCAUUCUGAGUGUGCGAGUGUGUGUGCACAUGUUACA	1.17
CUGUUGUGUGAAAAAUGUCUAUCCAGAGAAGUAACAUUCUAUAAAUAUUAUCAAAUAAUACAGCUAGAGUAUUUUUAGGUAUUAAAUUAUUUGUCAAGCAUUUAAAGUGAAUUUGAGAUU	0.511
AGGGCUGUGUAGAGUAGGGCUGUGUUCUCCUUAGGAUGUUGCUUCUUGAUUUUUUUUUUUUAGGGGUGGGUCAGGGUUGUGACACACCAGCCCAGGCGAGAGCUGCUGUAGGUCACCUCA	3.07

Sample 3
Target: Sal-like protein 4, full length isoform B (SALL4, Homo sapiens, UniProt Q9UJQ4-2, residues 1-616)
Technique: universal PBM
Molecule type: double-stranded DNA, one strand shown
Matrix: in vitro
Concentration: not given
Notes: 8-mer, flanks averaged, mean of replicates
Reading: higher = stronger binding
Oligonucleotide	E-score
AGGCGGAT	-0.0713
AAAATTAA	0.373
AGTGTGTC	-0.028
AAGACCCT	-0.00259
CAACTGCA	-0.0532
AATTTTTA	0.417
AGGTCTAG	0.0361
GCAACACC	-0.107
GATCCCGA	-0.218
TCCCCAGA	-0.181
GCACGACC	-0.233
CCTCGCGC	-0.258
ACCTGTGA	-0.0875
CCAATCGG	-0.191
CTTGCGCA	0.0972
GATCCAAA	0.155
CTGGAAAG	-0.13
AGCGCGCC	-0.343
TAACAATA	0.422
AGATAGCG	-0.0806
AACCTGGT	-0.121
GCGTTAAC	0.0369
CGCCGTAG	-0.192
CGGCGCAC	-0.316
GAGCTTAA	0.0144

Sample 4
Target: RNA binding protein fox-1 homolog 2, RRM domain, GST-SBP tag (RBFOX2, Homo sapiens, UniProt O43251-10, residues 100-194)
Technique: RNA Bind-n-Seq
Molecule type: RNA
Matrix: in vitro
Concentration: 365 nM
Notes: natural RNA segment, single round, ends assumed
Reference: no-protein control
Reading: higher = stronger binding
All sequences stand within: GGGAGUUCUACAGUCCGACGAUC … UGGAAUUCUCGGGUGCCAA
Construct (chain): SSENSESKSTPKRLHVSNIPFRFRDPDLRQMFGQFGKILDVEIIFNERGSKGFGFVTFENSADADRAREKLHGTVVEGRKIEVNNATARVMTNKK
Oligonucleotide	RBNS enrichment (R)
ACUUAAACUUUGCAUUGAAAGUUUGGAAAAUUACUUGAAAUAAAAAAAGAUUUUUAUACAAAUACAACCUUUAUAGAGAAAUCUGAUUGCUAAGGAAAUAGAAGGGGAAA	0.722
AAUCAUCCCCGUGACCUCCUCAGCUGCUGACAAUCCUAUUUAGCAUAUGCAAAUCUUUUAUUGUAGAGGACCAGACCAUCGCUGCUGAAGGGACAGGCUGGUGGAGCCUG	0.476
AAAUUGAACCCAUUAAGAAUUAAUGCUUAUCAUUAUGGAGAGAUUAUCCAUUAACUUUCAUGGCUGACUUCUGUCUAGGCAUCAUAGUUUGCUUCAGAAUAGAUCUUUAU	0.393
AGUCUUCUCAACCAAGCUUAACUCGAGUUGUCUUCUCAGCCCUCAAAAGGCUCUUGUACAAAAUGUAGAUUAAAAUUUGGGUGAUUGUUGAUUGACCUUUGCAUACCCUG	0.258
AUAAGUUUCCUUGGAGUUUUAUGCACAUGUUUGAUUGUUCUAGAUAAAUUGUCAUAAACAUUCUAGGAAGUUCAAGAAAAUGAUGCAGUACCCAGCACAUGAAAGACCUA	0.338
GGAACAGGGGAAGGGGAAUGUUUUCAAGACAUUUAUCCUGUUAGAAAAUCUUACAGACUAGCUUUAGGAACAUAGUGUCAAACAAAGCUGCUGCUUUAGUCUUCUUUUCU	0.299
AGACUCAUUCUGGAAUCUAGUGUGGGUCAAGCCAACUUCAGGGAGAGGCUGAGCCAGGGUAGGAGUCACAGGAGCAGACGAGGAUGUGGGGUGCCGUGCACAGAGCUCCA	0.477
AAUUAUUGAUCAAGAAGACAGGUUUGUUUCCUAAUUAGCACACCCUGACUUCACUCAUUUGCUUUCUUUUCCUUGGAACCCUGCCUAAUAACUUCUGUGGGAGCUCAUCC	0.663
CUAAGUUGUCAGCCCAACAGAGUUUGGUAGACCUUGGGGGUCCCUGGCUUAUCUCUCCACCCCAAACCUCCUUCCUGUCUGGUCCCCAGCCUGGGGGGGUUCUGAGCAGU	0.87
UGCUUCUGGACCAGAACAGCUCCAGCUCCCAGGUAUUUUCUACAGGACCACUUGAGUGGGCAGCCAAGCCCAGGCUCGCAGUAUCAAUAAAGCAGUUCUCUGAGGAAUGA	0.259
CUGUUAGACAUUGGGUUCUCCUUUACGUUGCCCUAUUGCUUUAAUAACAUCAAGAUCUCUCCUAGUUAAGAGGUGUUUAAUUAAAAAAAAAAAGCAUCUAGGAUAAAUAU	0.299
CUGUGGGGGAACUCAGUGGCAGGAAGCUAGUGGUCCCUGGGAACAGGGGACAGGAAUCCGUACCCAACUGCCCCGUUCUUUCUUCCCAUUCUUUCUUCCUAGGAUGCAUA	0.375

Sample 5
Target: PABPC1L2, full length, GST fusion (mouse, UniProt A0ABA7IW68)
Technique: RNAcompete
Molecule type: RNA
Matrix: in vitro
Concentration: 20 nM
Notes: 7-mer, probes averaged, single round
Reference: mean of 7-mers
Reading: higher = stronger binding
Construct (chain): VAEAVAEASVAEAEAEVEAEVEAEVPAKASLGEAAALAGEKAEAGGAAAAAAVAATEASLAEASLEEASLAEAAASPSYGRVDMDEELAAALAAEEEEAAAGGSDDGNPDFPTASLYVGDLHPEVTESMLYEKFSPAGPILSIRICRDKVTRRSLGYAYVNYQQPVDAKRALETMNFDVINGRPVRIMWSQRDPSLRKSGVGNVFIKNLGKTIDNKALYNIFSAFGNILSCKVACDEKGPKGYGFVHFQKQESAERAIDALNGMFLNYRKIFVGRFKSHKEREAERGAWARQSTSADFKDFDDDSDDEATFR
Oligonucleotide	7-mer Z-score
UGCCAAC	-0.132
ACUAAAG	0.602
AUUACCA	-0.104
GAGGCCU	-0.139
AACCCCU	-0.213
AUCAUUG	-0.184
UCUAUAA	0.441
CAUUUUA	-0.0301
CUAUGCU	-0.213
UACCAGC	-0.349
ACUGUAU	-0.242
ACCCAUA	-0.124
GGCAUUG	-0.00289
CCUAUCA	-0.231
GUGUUUU	-0.423
AGUAAGU	-0.157

A few entries again (sample 5):
Oligonucleotide	7-mer Z-score
AGUAAGU	-0.157
UCUAUAA	0.441
UGCCAAC	-0.132
CUAUGCU	-0.213
GGCAUUG	-0.00289
CAUUUUA	-0.0301
ACUAAAG	0.602
